Published values gathered from unrelated publications.
Each numbered part is a random draw from the data of one study; scales do not carry over between parts.
Sequence of UniProt Q6ZWH5 (whole entry, looked up): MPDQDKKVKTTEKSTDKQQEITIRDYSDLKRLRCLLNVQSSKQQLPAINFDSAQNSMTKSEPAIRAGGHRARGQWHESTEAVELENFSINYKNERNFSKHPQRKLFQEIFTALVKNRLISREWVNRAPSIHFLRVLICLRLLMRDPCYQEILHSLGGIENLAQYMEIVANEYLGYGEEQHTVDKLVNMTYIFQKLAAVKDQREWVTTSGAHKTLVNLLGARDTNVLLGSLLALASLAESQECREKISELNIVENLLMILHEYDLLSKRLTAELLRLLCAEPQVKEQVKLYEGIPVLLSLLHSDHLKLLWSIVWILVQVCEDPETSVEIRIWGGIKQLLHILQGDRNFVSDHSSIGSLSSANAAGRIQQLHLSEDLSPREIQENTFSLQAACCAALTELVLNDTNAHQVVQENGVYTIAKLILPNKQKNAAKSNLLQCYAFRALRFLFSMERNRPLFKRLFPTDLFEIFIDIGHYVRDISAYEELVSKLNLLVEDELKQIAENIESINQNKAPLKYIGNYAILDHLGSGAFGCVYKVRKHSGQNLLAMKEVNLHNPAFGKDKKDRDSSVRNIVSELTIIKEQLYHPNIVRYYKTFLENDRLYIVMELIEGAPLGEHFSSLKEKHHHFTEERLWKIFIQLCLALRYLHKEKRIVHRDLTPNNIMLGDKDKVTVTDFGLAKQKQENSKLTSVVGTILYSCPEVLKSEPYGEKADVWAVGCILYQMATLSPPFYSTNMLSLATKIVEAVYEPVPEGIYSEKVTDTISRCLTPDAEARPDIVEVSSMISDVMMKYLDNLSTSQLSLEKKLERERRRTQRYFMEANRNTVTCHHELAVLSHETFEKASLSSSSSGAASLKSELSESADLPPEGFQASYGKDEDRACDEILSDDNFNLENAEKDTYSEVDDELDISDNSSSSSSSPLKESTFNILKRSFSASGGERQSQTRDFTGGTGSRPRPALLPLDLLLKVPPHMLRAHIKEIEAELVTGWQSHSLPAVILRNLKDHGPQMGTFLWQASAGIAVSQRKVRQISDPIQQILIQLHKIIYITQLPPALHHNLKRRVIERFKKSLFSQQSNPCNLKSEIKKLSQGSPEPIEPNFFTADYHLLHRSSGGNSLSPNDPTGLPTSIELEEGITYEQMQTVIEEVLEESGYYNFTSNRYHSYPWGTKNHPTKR
Sequence of UniProt P52333 (whole entry, looked up): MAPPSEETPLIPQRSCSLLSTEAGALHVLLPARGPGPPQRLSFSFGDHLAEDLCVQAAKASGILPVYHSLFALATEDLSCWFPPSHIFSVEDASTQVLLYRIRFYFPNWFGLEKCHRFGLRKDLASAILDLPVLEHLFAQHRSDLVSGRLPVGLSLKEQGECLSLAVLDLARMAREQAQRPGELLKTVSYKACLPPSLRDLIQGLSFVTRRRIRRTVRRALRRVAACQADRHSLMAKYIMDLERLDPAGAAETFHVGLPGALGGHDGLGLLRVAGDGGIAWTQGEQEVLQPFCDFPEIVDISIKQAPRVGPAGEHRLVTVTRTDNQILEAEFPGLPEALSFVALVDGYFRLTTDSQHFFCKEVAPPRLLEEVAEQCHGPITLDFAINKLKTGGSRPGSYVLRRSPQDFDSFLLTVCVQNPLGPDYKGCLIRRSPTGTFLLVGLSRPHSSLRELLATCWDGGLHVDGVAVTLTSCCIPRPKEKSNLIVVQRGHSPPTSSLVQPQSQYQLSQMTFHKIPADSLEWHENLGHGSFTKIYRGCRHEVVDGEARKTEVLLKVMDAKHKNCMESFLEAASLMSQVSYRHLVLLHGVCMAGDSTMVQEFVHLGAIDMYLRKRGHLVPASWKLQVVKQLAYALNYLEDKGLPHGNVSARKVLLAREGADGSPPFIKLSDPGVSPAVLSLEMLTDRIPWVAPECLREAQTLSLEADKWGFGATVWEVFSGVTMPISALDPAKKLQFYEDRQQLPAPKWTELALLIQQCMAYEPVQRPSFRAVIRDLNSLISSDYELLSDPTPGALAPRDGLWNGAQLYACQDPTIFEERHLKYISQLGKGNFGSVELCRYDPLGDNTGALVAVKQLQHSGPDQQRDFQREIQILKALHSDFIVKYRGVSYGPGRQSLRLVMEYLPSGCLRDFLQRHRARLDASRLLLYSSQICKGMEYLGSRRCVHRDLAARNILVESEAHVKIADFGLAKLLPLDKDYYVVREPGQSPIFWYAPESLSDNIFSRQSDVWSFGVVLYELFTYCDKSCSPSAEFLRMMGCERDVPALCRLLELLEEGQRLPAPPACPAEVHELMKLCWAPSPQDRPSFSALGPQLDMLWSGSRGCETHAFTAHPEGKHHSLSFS

Series 1 — technique: protein-binding microarray; molecule type: double-stranded DNA, one strand shown; matrix: in vitro; tested at: not given; direction: higher = stronger binding
Target: Transcriptional repressor CTCF (CTCF, Homo sapiens, UniProt P49711, residues 1-727, full length assumed)
Sequence of UniProt P49711 (whole entry, looked up): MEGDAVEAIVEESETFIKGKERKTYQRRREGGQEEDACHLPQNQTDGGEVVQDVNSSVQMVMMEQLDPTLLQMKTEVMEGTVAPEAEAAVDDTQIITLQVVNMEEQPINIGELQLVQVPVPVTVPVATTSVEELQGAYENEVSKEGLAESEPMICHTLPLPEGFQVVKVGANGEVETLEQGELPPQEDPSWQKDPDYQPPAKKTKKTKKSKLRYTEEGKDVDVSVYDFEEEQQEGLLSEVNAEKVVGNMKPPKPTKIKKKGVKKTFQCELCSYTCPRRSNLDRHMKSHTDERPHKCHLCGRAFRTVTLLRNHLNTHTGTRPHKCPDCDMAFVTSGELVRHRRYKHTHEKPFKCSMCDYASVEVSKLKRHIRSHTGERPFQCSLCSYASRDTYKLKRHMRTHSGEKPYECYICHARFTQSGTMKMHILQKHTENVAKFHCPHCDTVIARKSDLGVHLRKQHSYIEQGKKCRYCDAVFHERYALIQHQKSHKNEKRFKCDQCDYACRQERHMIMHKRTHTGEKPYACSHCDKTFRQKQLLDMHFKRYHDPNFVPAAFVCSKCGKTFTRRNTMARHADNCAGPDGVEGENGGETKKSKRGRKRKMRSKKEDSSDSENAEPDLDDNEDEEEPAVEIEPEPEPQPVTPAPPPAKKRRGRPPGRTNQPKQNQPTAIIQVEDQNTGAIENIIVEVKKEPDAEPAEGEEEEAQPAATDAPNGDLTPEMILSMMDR
Setting: k-mer, scored over probes, only values ≥0.25
| Oligonucleotide | E-score |
| --- | --- |
| ATTAAAAT | 0.307 |
| ACTCGCGC | 0.322 |
| ATTAAACG | 0.285 |
| CTTTAATA | 0.268 |
| AATACATT | 0.253 |
| ATAATCTA | 0.268 |
| CAATACTC | 0.292 |
| CGCGCAAA | 0.397 |

Series 2 — technique: protein binding microarray; molecule type: double-stranded DNA, one strand shown; matrix: in vitro; tested at: not given; reference: not given; direction: higher = stronger binding
Target: Histone acetyltransferase KAT6A, winged helix 1, GST fusion (KAT6A, Homo sapiens, UniProt Q92794, residues 1-85)
Setting: 8-mer, flanks averaged, mean of 2 arrays, mostly near background
Residues (chain): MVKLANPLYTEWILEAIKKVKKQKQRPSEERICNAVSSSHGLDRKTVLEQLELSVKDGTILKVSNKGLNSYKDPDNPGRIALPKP
| Oligonucleotide | E-score |
| --- | --- |
| ACCTCGGC | 0.179 |
| AAGCAGGG | -0.188 |
| GAGAACAA | 0.0248 |
| AAAGTCTG | -0.282 |
| AGGTCCGA | 0.0276 |
| GAGATAAA | -0.0752 |
| ACCATTCC | 0.0272 |
| AAGGGAGC | -0.183 |

Mixed results
| Compound | tested on | effect on | technique | matrix | tested at | endpoint | value |
| --- | --- | --- | --- | --- | --- | --- | --- |
| CN(C)C(=O)Cn1cc(-c2nc([C@@](C)(c3ccc(-c4cnc(N)nc4)cc3)C3CC3)no2)cn1 | Tyrosine-protein kinase JAK3, JH1 (JAK3, Homo sapiens, UniProt P52333) | cell-free assay | competition with immobilised ligand |  | 1 µM | remaining binding | 95% |
| CCC[C@H]1NC(=O)CSC[C@@H](C(=O)OCC)N(C)C(=O)[C@H](CC(C)C)NC(=O)[C@@H](C)N(C)C(=O)[C@@H](CC(C)C)NC(=O)[C@H](C)N(C)C(=O)[C@H]2CCCN2C(=O)[C@@H](CC(C)C)NC(=O)CN(CCC)C1=O |  |  |  | hydrocarbon/water |  | logD | 0.957 |
| COc1ccc2cc(OCC3(C(=O)O)CN(C(=O)c4ccc(F)cc4)C3)ccc2c1 | NEK10 (Homo sapiens, UniProt Q6ZWH5) | cell-free assay | competition with immobilised ligand |  | 1 µM | remaining binding | 100% |

A few entries again (series 2):
| Oligonucleotide | E-score |
| --- | --- |
| GAGATAAA | -0.0752 |
| ACCATTCC | 0.0272 |
